Measured values of several laboratories.
A part holds a random share of what one study measured. Changes are numbered by the printed parent chain.

Sample 1
Target: ABI1, truncated, D143A, DHFR fusion (Arabidopsis thaliana)
Technique: DHFR PCA, deep sequencing
Sample: yeast
Setting: methotrexate growth selection, single substitutions
Together with: (+)-ABA 4.8 µM
Relative to: wild-type fitted maximum
Reading: higher = stronger binding
Quantity: relative binding score
Parent: PYL1, truncated, DHFR fusion (Arabidopsis thaliana); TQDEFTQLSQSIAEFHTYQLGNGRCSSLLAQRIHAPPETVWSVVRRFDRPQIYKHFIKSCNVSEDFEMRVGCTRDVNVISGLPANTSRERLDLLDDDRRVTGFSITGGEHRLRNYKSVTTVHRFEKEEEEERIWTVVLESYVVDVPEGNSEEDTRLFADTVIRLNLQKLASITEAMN
T173C: 93.8%
S42K: 73.2%
V137G: 4.7%
I12E: -11.5%
D65Q: 60.6%
H55W: 65.3%
I79Y: 67.4%
T39L: 78.1%
V121A: 16.5%
T154A: 30.1%
R69E: 66.1%
V44S: -4.39%
R49D: -0.151%
N165T: -11.3%
R98W: 14.1%

Sample 2
Target: CCNA2, cyclin fold, Cln2 fusion (human)
Technique: yeast growth competition, sequencing
Sample: yeast
Setting: strong parent motif
Relative to: not given
Reading: higher = stronger binding
Quantity: normalised enrichment score
Parent: PKN2 docking peptide (human); VSAVRKLDFSDTM; partner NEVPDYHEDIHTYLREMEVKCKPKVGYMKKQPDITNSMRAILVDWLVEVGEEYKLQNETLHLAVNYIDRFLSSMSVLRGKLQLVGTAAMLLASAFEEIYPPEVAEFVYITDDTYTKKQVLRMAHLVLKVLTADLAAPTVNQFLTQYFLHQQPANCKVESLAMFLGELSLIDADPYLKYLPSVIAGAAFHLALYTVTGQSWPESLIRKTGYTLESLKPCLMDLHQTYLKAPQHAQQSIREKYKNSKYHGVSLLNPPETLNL
L7D: 0.205
A3G: 2.57
T12R: 5.5
A3N: 0.756
F9C: -0.112
A3I: 5.12
D8Q: 5.05
F9V: 0.545
D8F: 3.91
S10N: 5.03
V4C: 5.45
R5C: 3.09
S2A: 5
D11M: 4.92
V4R: 6.01
L7Y: 0.0587
F9N: 0.0349
S2W: 4.22
D11Q: 5.15

Sample 3
Target: UBE2C UBC core domain (UniProt O00762)
Technique: yeast two-hybrid
Sample: yeast
Setting: mostly zero background
Relative to: not given
Reading: higher = stronger interaction
Quantity: lacZ reporter activity
B1: CNOT4 RING domain (UniProt O95628); chain MSRSPDAKEDPVECPLCMEPLEIDDINFFPCTCGYQICRFCWHRIRTDENGLCPACRKPYPED
B2: TRIM11 RING domain (UniProt Q96F44); chain LSTNLQEEATCAICLDYFTDPVMTDCGHNFCRECIRRCWGQPEGPYACPECRELSPQRNLRP
B3: ARIH2 RING domain (UniProt O95376); chain HVPTSHPPHHCAVCMQFVRKENLLSLACQHQFCRSCWEQHCSVLVKDGVGVGVSCMAQDCPLRTPEDFVF
B4: RNF103 RING domain (UniProt O00237); chain WPADMLHCTECVVCLENFENGCLLMGLPCGHVFHQNCIVMWLAGGRHCCPVCRWPSYKKKQPY
B5: BFAR RING domain (UniProt Q9NZS9); chain GPQISVSEFSCHCCYDILVNPTTLNCGHSFCRHCLALWWASSKKTECPECREKWEGFPKVS
B6: RNF6 RING domain (UniProt Q9Y252); chain NSIDSELGKICSVCISDYVTGNKLRQLPCMHEFHIHCIDRWLSENCTCPICRQPVLGSNIAN
B7: HLTF RING domain (UniProt Q14527); chain LILSSGSDEECAICLDSLTVPVITHCAHVFCKPCICQVIQNEQPHAKCPLCRNDIHEDNLLE
B8: NFX1 RING domain (UniProt Q12986); chain IEQLTTEKYECMVCCELVRVTAPVWSCQSCYHVFHLNCIKKWARSPASQADGQSGWRCPACQNVSAHVPNTY
Residues (chain): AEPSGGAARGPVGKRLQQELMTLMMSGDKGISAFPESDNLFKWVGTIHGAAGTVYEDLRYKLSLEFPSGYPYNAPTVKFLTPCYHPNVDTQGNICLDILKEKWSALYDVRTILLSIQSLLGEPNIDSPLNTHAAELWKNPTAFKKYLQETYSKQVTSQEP
B1 (CNOT4 RING domain): 0
B2 (TRIM11 RING domain): 0
B3 (ARIH2 RING domain): 0
B4 (RNF103 RING domain): 0
B5 (BFAR RING domain): 0
LVKDFNPYITCYICKGYLIKPTTVTECLHTFCKTCIVQHFEDSNDCPRCGNQVHETNPLE (PCGF5 RING domain (UniProt Q86SE9)): 0
B6 (RNF6 RING domain): 0
B7 (HLTF RING domain): 0
B8 (NFX1 RING domain): 0
FDPPLESKYECPICLMALREAVQTPCGHRFCKACIIKSIRDAGHKCPVDNEILLENQLFP (TRAF6 RING domain (UniProt Q9Y4K3)): 0

Sample 4
Target: RNA binding protein fox-1 homolog 2, RRM domain, GST-SBP tag (RBFOX2, Homo sapiens, UniProt O43251-10, residues 100-194)
Technique: RNA Bind-n-Seq
Molecule type: RNA
Sample: in vitro
Concentration: 365 nM
Setting: natural RNA segment, single round, ends assumed
Relative to: no-protein control
Reading: higher = stronger binding
Quantity: RBNS enrichment (R)
Shared flanks, not repeated: GGGAGUUCUACAGUCCGACGAUC … UGGAAUUCUCGGGUGCCAA
Target sequence (chain): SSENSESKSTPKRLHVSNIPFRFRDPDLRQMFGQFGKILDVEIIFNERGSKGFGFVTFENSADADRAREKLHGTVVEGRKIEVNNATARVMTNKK
ACUGCUGGCCAGAGGACUUUAGCCUACCCCUGAAGAGCCUGUCCAUGUCAUUUUCCUACUGCCAUAGAUACCCUAAGCCCAGGGCCCCUUGAGGCCCAGACUCAGCCUGC: 0.246
GCAUUGAUCUAACCUUUUUCCCCCCCAUUUCAGUUGCAGUUUUUGUAGAAUGGCUUUUUCUUUUUCCUCUUAAGAGUUCUAUUCUUCAGGUAGAUAAUUUUUCAAAUGUG: 1.2
UAGGGUAAAGCAAGAAAACUCAAGCUGCAGCUGGACUGCAGGCUUAUUUUGCUUAAGUCAACAGUGCCCUAAAACUCCAAACUCAAAUGCAGUCAAUUAUUCACGCCAUG: 0.289
CAGCCUUGGUGGCAAGUCACUAGGAAACUUCAAGGUCUGUCUCAUCUUUAUUUUACUGUGUGCCCCUGGCUGUCCUGGAAAUCACUAUAUUGCUCAGGCUGGCUUCGGAC: 0.377
GAUUAAAAACUUCAAAUGAUGGAAAAAGAGAUCUCUUGUGAAACGAAACGCCCCGUGUUAAUAACUUGGUCUGAAAUUGUUUUUAUGAGCCGGGCCCCCUGUGCCUCUAG: 0.621
ACAGGCUGGACCUGUGAGAUAUGGUUUGAAUUUUAACCAGUUUAUCACAUAACCUCUAGAGACCAUGCAUCUAGUUAUUGUCAGGAAUAAUUUAAAAGGUUUAGUCGCCA: 0.554
AAUCUGGGUCCUCUGCAUUUCUGUAUAACUUACAAGGUCUGGUUGUCAGUUUUUGCAAAAAGGCCUGCUGGGGUUUCCAUAGGGAAUGUUUUGAAUCUAUAGAUGAGUCA: 0.499
AGGAUCCCUCCUGAAAUCUCCUACUUCUUGUCUGCCACUCACUCUUGAGGACACUGGGCCCCCAUGGAAUCCCUCCAUGCCCUAGCAUGGCUAAAUGCUGAAGGUGGAGG: 0.747

A few entries again (sample 2):
F9N: 0.0349
A3G: 2.57
D11Q: 5.15
V4C: 5.45
D11M: 4.92
D8F: 3.91
